Published values from different studies.
Numbers after ± are the reported error. Values after ≈ are worked out from the molar mass of the structure shown.
Organism: Candida albicans

For `COC(=O)c1cnc(-c2cnccn2)cc1C(=O)OC.COC(=O)c1cnc(-c2cnccn2)cc1C(=O)OC.F[P-](F)(F)(F)(F)F.[Ag+]`, the biofilm formation was 51% (crystal violet staining; ATCC 10231; MIC).
`COc1ccc(/N=N/C(=S)N2CCN(C)CC2)cc1` gave an IC50 of greater than 50 µM (microbial growth; ATCC10231; 24 h).
`COc1ccc2c(c1CC=C(C)C)O[C@H]1c3cc4c(cc3OC[C@@]21O)OC(C)(C)C=C4` — result for antibacterial activity: “inactive” (ATCC 10231; concentration not given).
With `O=c1c2ccccc2sn1-c1cc(Br)cc(Br)c1` the MIC was 6250 ng/mL (≈ 16.2 µM) (growth, broth dilution; ATCC 64124; MIC-0).
`CCOc1ccc(NC(=O)CSc2nc3ccccc3c(=O)n2-c2ccc(S(N)(=O)=O)cc2)cc1` gave an inhibition zone of 26 mm (microbial growth, well diffusion; ATCC10231; 500 µg/mL, 72 h).
`C[C@@H](c1ccn(Cc2cccc(C(F)(F)F)c2)n1)[C@](O)(Cn1cnnn1)c1ccc(F)cc1F` has an MIC of less than 8 ng/mL (growth, broth microdilution; SC5314; 24 h, 30 °C, ≥50% inhibition).
The IC50 of `CCCCCCCCCC1CC2CCCC3CC(CCCCCCCCC)NC(=N1)N23` (centres unmarked) is reported as 3.89 µM (fungal growth; ATCC 90028).
`S=c1n(CN2CCN(c3ccccn3)CC2)nc(C23CC4CC(CC(C4)C2)C3)n1-c1ccccc1` gave an inhibition zone of 13 mm (microbial growth, disc diffusion; IFO0583; 200 µg/disc, 48 h).
`CC(C)=CCc1cc2c(cc1O)OCc1c-2oc2c(CC=C(C)C)c(O)ccc12` — result for antibacterial activity: “inactive” (ATCC 10231; concentration not given).
For `CCN1CCN(Cn2nc(C34CC5CC(CC(C5)C3)C4)n(-c3ccccc3)c2=S)CC1`, “inhibition zone diameter” read less than 10 mm (IFO 0583; 200 µg/disc, 48 h, 37 °C).
With `C[C@@H](c1ccn(Cc2c(F)cc(Cl)cc2F)n1)[C@](O)(Cn1cnnn1)c1ccc(F)cc1F` the MIC was less than 8 ng/mL (growth, broth microdilution; SC5314; 24 h, 30 °C, ≥50% inhibition).
For `S=c1n(CN2CCN(c3ccccc3)CC2)nc(C23CC4CC(CC(C4)C2)C3)n1-c1ccccc1`, “inhibition zone diameter” read less than 10 mm (IFO 0583; 200 µg/disc, 48 h, 37 °C).
The IC50 of `COc1ccc(/N=N/C(=S)N2CCCCC2)cc1` is reported as greater than 50 µM (microbial growth; ATCC10231; 24 h).
With `C[C@@H](c1ccn(Cc2ccc(Cl)cc2)n1)[C@](O)(Cn1cnnn1)c1ccc(F)cc1F` the MIC was less than 8 ng/mL (growth, broth microdilution; SC5314; 24 h, 30 °C, ≥50% inhibition).
`CCCCCC1CC2CCCC3CC(C)N=C(N1)N32` (centres unmarked) gave an IC50 of 16.8 µM (fungal growth; ATCC 90028).
`FC(F)(F)c1cc(CSc2nnc(C34CC5CC(CC(C5)C3)C4)n2-c2ccccc2)cc(C(F)(F)F)c1` has an inhibition zone of 13 mm (microbial growth, disc diffusion; IFO0583; 200 µg/disc, 48 h).
For `CCc1ccccc1NC(=O)CSc1nc2ccccc2c(=O)n1-c1ccc(S(N)(=O)=O)cc1`, the inhibition zone was 21 mm (microbial growth, well diffusion; ATCC10231; 500 µg/mL, 72 h).
Under “inhibition zone diameter”, `CC(=O)[O-].O.O.O.O.[Mn+2].[O-]c1ccc(Br)cc1C=NCCN1CCOCC1` is recorded as 16 mm (20 µL of 100 µM per disc).
For `N=C(N)NCCC[C@@H]1NC(=O)[C@H](CCCNC(=N)N)NC(=O)[C@H](CCCNC(=N)N)NC(=O)[C@H](Cc2ccc3ccccc3c2)NC(=O)[C@H](Cc2c[nH]c3ccccc23)NC(=O)[C@H](Cc2ccc3ccccc3c2)NC(=O)[C@H](CCCNC(=N)N)NC1=O`, “biofilm mass reduction” read 31 to 39% (XTT; ATCC 60193; MIC).
For `CCN(CC)CCSc1nnc(C23CC4CC(CC(C4)C2)C3)n1C`, “inhibition zone diameter” read less than 10 mm (IFO 0583; 200 µg/disc, 48 h, 37 °C).
For `C[C@@H](c1ccn(Cc2cccc(F)c2F)n1)[C@](O)(Cn1cnnn1)c1ccc(F)cc1F`, the MIC was less than 8 ng/mL (growth, broth microdilution; SC5314; 24 h, 30 °C, ≥50% inhibition).
`COc1ccc(NC(=O)CSc2nc3ccccc3c(=O)n2-c2ccc(S(N)(=O)=O)cc2)cc1` has an inhibition zone of 21 mm (microbial growth, well diffusion; ATCC10231; 500 µg/mL, 72 h).
`CC(C)=CCc1c(O)ccc2c1O[C@H]1c3cc4c(cc3OC[C@@H]21)OC(C)(C)C=C4` — result for antibacterial activity: “inactive” (ATCC 10231; concentration not given).
`C[C@@H](c1ccn(Cc2cc(F)cc(F)c2)n1)[C@](O)(Cn1cnnn1)c1ccc(F)cc1F` gave an MIC of less than 8 ng/mL (growth, broth microdilution; SC5314; 24 h, 30 °C, ≥50% inhibition).
Under “inhibition zone diameter”, `Clc1ccc(CSc2nnc(C34CC5CC(CC(C5)C3)C4)n2-c2ccccc2)cc1` is recorded as less than 10 mm (IFO 0583; 200 µg/disc, 48 h, 37 °C).
With `NS(=O)(=O)c1ccc(-n2c(S)nc3ccccc3c2=O)cc1` the inhibition zone was 14 mm (microbial growth, well diffusion; ATCC10231; 500 µg/mL, 72 h).
With `CCCCn1ccc([C@H](C)[C@](O)(Cn2cnnn2)c2ccc(F)cc2F)n1` the MIC was less than 8 ng/mL (growth, broth microdilution; SC5314; 24 h, 30 °C, ≥50% inhibition).
Under antibacterial activity, `COc1ccc2c3c(oc2c1CC=C(C)C)-c1cc(CC=C(C)C)c(O)cc1OC3` is recorded as “inactive” (ATCC 10231; concentration not given).
`Cn1c(C23CC4CC(CC(C4)C2)C3)nn(CCN2CCCC2)c1=S`: “inhibition zone diameter” less than 10 mm (IFO 0583; 200 µg/disc, 48 h, 37 °C).
`CCCCCCCCCC1CC2CCC3CC(CCCCCCCCC)NC(=N1)N23` (centres unmarked) gave an IC50 of 3.02 µM (fungal growth; ATCC 90028).
`S=c1n(CN2CCN(Cc3ccccc3)CC2)nc(C23CC4CC(CC(C4)C2)C3)n1-c1ccccc1` — result for “inhibition zone diameter”: less than 10 mm (IFO 0583; 200 µg/disc, 48 h, 37 °C).
With `C[C@@H](c1ccn(Cc2ccc(OC(F)(F)F)cc2)n1)[C@](O)(Cn1cnnn1)c1ccc(F)cc1F` the MIC was less than 8 ng/mL (growth, broth microdilution; SC5314; 24 h, 30 °C, ≥50% inhibition).
`CC(=NNC(=N)N)c1nnn(-c2ccc(C#CC3(O)CCCCC3)cc2)c1C` — result for “inhibition zone diameter”: 37.7 ± 0.47 mm (ATCC 10231; concentration not given).
`C[C@@H](c1ccn(Cc2ccc(F)c(F)c2)n1)[C@](O)(Cn1cnnn1)c1ccc(F)cc1F` has an MIC of less than 8 ng/mL (growth, broth microdilution; SC5314; 24 h, 30 °C, ≥50% inhibition).
With `Cc1cc([N+](=O)[O-])ccc1NC(=O)CSc1nc2ccccc2c(=O)n1-c1ccc(S(N)(=O)=O)cc1` the MBC was 2120 ng/mL (≈ 4.03 µM) (ATCC 10231).

For quick reference, copied from above:
`S=c1n(CN2CCN(c3ccccn3)CC2)nc(C23CC4CC(CC(C4)C2)C3)n1-c1ccccc1` gave an inhibition zone of 13 mm (microbial growth, disc diffusion; IFO0583; 200 µg/disc, 48 h).
`CC(C)=CCc1cc2c(cc1O)OCc1c-2oc2c(CC=C(C)C)c(O)ccc12` — result for antibacterial activity: “inactive” (ATCC 10231; concentration not given).
For `CCN1CCN(Cn2nc(C34CC5CC(CC(C5)C3)C4)n(-c3ccccc3)c2=S)CC1`, “inhibition zone diameter” read less than 10 mm (IFO 0583; 200 µg/disc, 48 h, 37 °C).
With `C[C@@H](c1ccn(Cc2c(F)cc(Cl)cc2F)n1)[C@](O)(Cn1cnnn1)c1ccc(F)cc1F` the MIC was less than 8 ng/mL (growth, broth microdilution; SC5314; 24 h, 30 °C, ≥50% inhibition).
